Measured values from different studies.
Protocols differ between the studies behind these lines. ± gives the spread as reported.
Method: steady-state kinetics
B1: protein Y93N (Thermus thermophilus, UniProt Q5SKR5); chain MSAPKPFVIGIAGGTASGKTTLAQALARTLGERVALLPMDHYYKDLGHLPLEERLRVNYDHPDAFDLALYLEHAQALLRGLPVEMPVYDFRANTRSPRRTPVRPAPVVILEGILVLYPKELRDLMDLKVFVDADADERFIRRLKRDVLERGRSLEGVVAQYLEQVKPMHLHFVEPTKRYADVIVPRGGQNPVALEMLAAKALARLARMGAA
B2: protein (Actinidia chinensis, UniProt H9M5U5); chain MATAAGPIATNNSPQNSNAYRTPIAPSVPITHKWSIAEDLTCISNPSKHNNPQTGYRSFSDELYVKYEEKLEDVRKALREVEENPLEGLVMIDALQRLGIDYHFRGEIGAFLQKQQIISSTPDGYPEHGLYEVSTLFRFLRQEGHNVTADVFNNFKDKEGRFRSELSTDIRGLMSLYEASQLRIEGEDILDQAADFSSQLLGRWTKDPNHHEARLVSNTLTHPYHKSLATFMGQKLSYMNCKGPNWDGVDNLQELAKMDLTIVQSIHQKEVFQVSQWWKDTGLANELKLARNQPLKWYMWPMAALTDPRFSEERVELTKPISFIYIIDDIFDVYGTIEELTLFTDAVNRWELSAVEQLPDYMKVCFKALYDVTNEIAYKIYKKHGQNPIDSLQKTWASLCNAFLVEAKWFASGHLPNAEEYLKNGIISSGVHVVLAHMFFLLGDGITQESVDLVDDYPGISTSIATILRLSDDLGSAKDEDQDGYDGSYIECYMKEHKGSSVDSAREEVIRMISEAWKCLNKECLSPNPFSESFRIGSLNMARMIPMMYSYDDNHNLPILEEHMKAMIYNTSL
B3: tsaM1 F253S/H255G/M230N/R216A/S234V/S257H/T232I/Y220I (Comamonas testosteroni, UniProt P94679); chain MFIRNCWYVAAWDTEIPAEGLFHRTLLNEPVLLYRDTQGRVVALENRCCHRSAPLHIGRQEGDCVRCLYHGLKFNPSGACVEIPGQEQIPPKTCIKSYPVVERNRLVWIWMGDPARANPDDIVDYFWHDSPEWRMKPGYIHYQANYKLIVDNLLDFTHLAWVHPTTLGTDSAASLKPVIERDTTGTGKLTITRWYLNDDMSNLHKGVAKFEGKADAWQIIQWSPPALLRNDIGVAPTGTGAPEGRRVPEAVQSRGTHIQTPETETTSHYWFCQARNFDLDDEALTEKIYQGVVVAFEEDRTMIEAHEKILSQVPDRPMVPIAADAGLNQGRWLLDRLLKAENGGTAP
B4: FNO G29W (Thermobifida fusca, UniProt Q47RA9); chain MIMIMASKSSPHDLPDVSGLSIAVLGGTWDQGRGLARRFAMAGHEVILGSRSAERAQAVAAELGEGLPVRGMDNAGAAEAGDVVIVAVPWDGHRALLESLKDVLAGKIVVDCVNPLGFDKRGAYALPVEEGSAAEQAAAILPDSRVVAAFHHVSAVLLLDPEVEKVDLDVLVLGDDREATDVVRALAARIPGVRGVYGGRLRNAHQVEAFTANLISINRRYKAHAGIRITDI
B5: Mj-MAT W387F/Y170W (Methanocaldococcus jannaschii, UniProt Q58605); chain MRNIIVKKLDVEPIEERPTEIVERKGLGHPDSICDGIAESVSRALCKMYMEKFGTILHHNTDQVELVGGHAYPKFGGGVMVSPIYILLSGRATMEILDKEKNEVIKLPVGTTAVKAAKEYLKKVLRNVDVDKDVIIDCRIGQGSMDLVDVFERQKNEVPLANDTSFGVGWAPLSTTERLVLETERFLNSDELKNEIPAVGEDIKVMGLREGKKITLTIAMAVVDRYVKNIEEYKEVIEKVRKKVEDLAKKIADGYEVEIHINTADDYERESVYLTVTGTSAEMGDDGSVGRGNRVNGLITPFRPMSMEAASGKNPVNHVGKIYNILANLIANDIAKLEGVKECYVRILSQIGKPINEPKALDIEIITEDSYDIKDIEPKAKEIANKFLDNIMEVQKMIVEGKVTTF
B6: MsrP (Escherichia coli, UniProt P76342); chain DLLSWFKGNDRPPAPAGKALEFSKPAAWQNNLPLTPADKVSGYNNFYEFGLDKADPAANAGSLKTDPWTLKISGEVAKPLTLDHDDLTRRFPLEERIYRMRCVEAWSMVVPWIGFPLHKLLALAEPTSNAKYVAFETIYAPEQMPGQQDRFIGGGLKYPYVEGLRLDEAMHPLTLMTVGVYGKALPPQNGAPVRLIVPWKYGFKGIKSIVSIKLTRERPPTTWNLAAPDEYGFYANVNPYVDHPRWSQATERFIGSGGILDVQRQPTLLFNGYAAQVASLYRGLDLRENF
B7: HEM1 (Saccharomyces cerevisiae, UniProt P09950); chain AAAAANHSTQESGFDYEGLIDSELQKKRLDKSYRYFNNINRLAKEFPLAHRQREADKVTVWCSNDYLALSKHPEVLDAMHKTIDKYGCGAGGTRNIAGHNIPTLNLEAELATLHKKEGALVFSSCYVANDAVLSLLGQKMKDLVIFSDELNHASMIVGIKHANVKKHIFKHNDLNELEQLLQSYPKSVPKLIAFESVYSMAGSVADIEKICDLADKYGALTFLDEVHAVGLYGPHGAGVAEHCDFESHRASGIATPKTNDKGGAKTVMDRVDMITGTLGKSFGSVGGYVAASRKLIDWFRSFAPGFIFTTTLPPSVMAGATAAIRYQRCHIDLRTSQQKHTMYVKKAFHELGIPVIPNPSHIVPVLIGNADLAKQASDILINKHQIYVQAINFPTVARGTERLRITPTPGHTNDLSDILINAVDDVFNELQLPRVRDWESQGGLLGVGESGFVEESNLWTSSQLSLTNDDLNPNVRDPIVKQLEVSSGIKQ
B8: enzyme (Mortierella alpina, UniProt U5Y6A8); chain MAPPHVVDEQVRRRIVVEDEIQSKKQFERNYVPMDFTIKEIRDAIPAHLFIRDTTKSILHVVKDLVTIAIVFYCATFIETLPSLALRVPAWITYWIIQGTVMVGPWILAHECGHGAFSDSKTINTIFGWVLHSALLVPYQAWAMSHSKHHKGTGSMSKDVVFIPATRSYKGLPPLEKPAAEEEVLEQEHHHHEESIFAETPIYTLGALFFVLTLGWPLYLIMNFSGHEAPHWVNHFQTVAPLYEPHQRKNIFYSNCGIVAMGSILTYLSMVFSPLTVFMYYGIPYLGVNAWIVCITYLQHTDPKVPHFRDNEWNFQRGAACTIDRSFGTIVNHLHHHIGDSHQCHHMFSQMPFYNAVEATKHLKAKLGKYYIFDDTPIAKALYRNWRECKFVEDEGDVVFYKH
B9: alanine racemase H166F (Geobacillus stearothermophilus, UniProt P10724); chain MNDFHRDTWAEVDLDAIYDNVENLRRLLPDDTHIMAVVKANAYGHGDVQVARTALEAGASRLAVAFLDEALALREKGIEAPILVLGASRPADAALAAQQRIALTVFRSDWLEEASALYSGPFPIHFHLKMDTGMGRLGVKDEEETKRIVALIERHPHFVLEGLYTFFATADEVNTDYFSYQYTRFLHMLEWLPSRPPLVHCANSAASLRFPDRTFNMVRFGIAMYGLAPSPGIKPLLPYPLKEAFSLHSRLVHVKKLQPGEKVSYGATYTAQTEEWIGTIPIGYADGWLRRLQHFHVLVDGQKAPIVGRICMDQCMIRLPGPLPVGTKVTLIGRQGDEVISIDDVARHLETINYEVPCTISYRVPRIFFRHKRIMEVRNAIGRGESSA
B10: ycjQ (Escherichia coli, UniProt P76043); chain MKKLVATAPRVAALVEYEDRAILANEVKIRVRFGAPKHGTEVVDFRAASPFIDEDFNGEWQMFTPRPADAPRGIEFGKFQLGNMVVGDIIECGSDVTDYAVGDSVCGYGPLSETVIINAVNNYKLRKMPQGSSWKNAVCYDPAQFAMSGVRDANVRVGDFVVVVGLGAIGQIAIQLAKRAGASVVIGVDPIAHRCDIARRHGADFCLNPIGTDVGKEIKTLTGKQGADVIIETSGYADALQSALRGLAYGGTISYVAFAKPFAEGFNLGREAHFNNAKIVFSRACSEPNPDYPRWSRKRIEETCWELLMNGYLNCEDLIDPVVTFANSPESYMQYVDQHPEQSIKMGVTF
B11: protein (Sinorhizobium meliloti, UniProt Q92WA3); chain MVAPRILVTGGAGYIGSHTAKLLRLEGIEPVVYDNLTTGNRSAVRWGPFVQGDILDGRRLIEVIEAHQPDAVIHFAASAYVGESVADPAKYYNNNVRGTLSLLDACRQTGVDKVIFSSSCATYGVPAVLPIDEATPQAPINPYGKTKLVAEHMLADYAAAFALNYVSLRYFNACGADPEGDLGEWHDPETHLIPRALMAAAGRIPHLEIFGEDYDTPDGTCVRDYIHVADLASAHVLAYRHLAKGGGNVALNLGTGRGFSIKEVLRTIGEITGHDVPVVFRRRRAGDPPALYADAGLACRTLGFLPRYSDLETIVRTAAPFFGLEVRS
Sequence of UniProt P07379 (whole entry, looked up): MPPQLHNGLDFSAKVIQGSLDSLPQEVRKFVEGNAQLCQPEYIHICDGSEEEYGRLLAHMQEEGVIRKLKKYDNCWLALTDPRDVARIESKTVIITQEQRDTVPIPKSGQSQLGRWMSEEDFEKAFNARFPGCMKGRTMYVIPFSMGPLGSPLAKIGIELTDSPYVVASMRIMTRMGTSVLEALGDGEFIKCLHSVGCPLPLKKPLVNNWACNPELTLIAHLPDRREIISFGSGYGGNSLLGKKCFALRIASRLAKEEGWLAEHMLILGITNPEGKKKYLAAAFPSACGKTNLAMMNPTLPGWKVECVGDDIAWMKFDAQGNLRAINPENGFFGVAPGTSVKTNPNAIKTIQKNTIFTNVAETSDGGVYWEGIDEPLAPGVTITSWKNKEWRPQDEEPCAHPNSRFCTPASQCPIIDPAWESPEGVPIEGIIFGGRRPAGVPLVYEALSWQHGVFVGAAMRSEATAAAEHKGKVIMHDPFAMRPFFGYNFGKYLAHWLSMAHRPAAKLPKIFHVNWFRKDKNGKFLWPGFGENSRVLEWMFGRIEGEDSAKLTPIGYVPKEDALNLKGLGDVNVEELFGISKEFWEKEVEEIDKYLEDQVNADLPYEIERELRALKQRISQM
Sequence of UniProt P23262 (whole entry, looked up): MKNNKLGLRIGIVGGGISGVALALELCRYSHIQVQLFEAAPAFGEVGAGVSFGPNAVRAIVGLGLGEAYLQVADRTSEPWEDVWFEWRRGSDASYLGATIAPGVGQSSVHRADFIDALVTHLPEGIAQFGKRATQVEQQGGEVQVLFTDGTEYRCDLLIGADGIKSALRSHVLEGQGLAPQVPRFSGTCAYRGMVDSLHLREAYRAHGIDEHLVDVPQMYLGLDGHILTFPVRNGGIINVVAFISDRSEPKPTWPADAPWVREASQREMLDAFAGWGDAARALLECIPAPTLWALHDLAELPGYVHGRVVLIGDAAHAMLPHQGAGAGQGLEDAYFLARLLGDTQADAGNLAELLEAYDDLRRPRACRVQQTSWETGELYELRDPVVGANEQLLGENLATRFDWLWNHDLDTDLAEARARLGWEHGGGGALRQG
Sequence of UniProt O48715 (whole entry, looked up): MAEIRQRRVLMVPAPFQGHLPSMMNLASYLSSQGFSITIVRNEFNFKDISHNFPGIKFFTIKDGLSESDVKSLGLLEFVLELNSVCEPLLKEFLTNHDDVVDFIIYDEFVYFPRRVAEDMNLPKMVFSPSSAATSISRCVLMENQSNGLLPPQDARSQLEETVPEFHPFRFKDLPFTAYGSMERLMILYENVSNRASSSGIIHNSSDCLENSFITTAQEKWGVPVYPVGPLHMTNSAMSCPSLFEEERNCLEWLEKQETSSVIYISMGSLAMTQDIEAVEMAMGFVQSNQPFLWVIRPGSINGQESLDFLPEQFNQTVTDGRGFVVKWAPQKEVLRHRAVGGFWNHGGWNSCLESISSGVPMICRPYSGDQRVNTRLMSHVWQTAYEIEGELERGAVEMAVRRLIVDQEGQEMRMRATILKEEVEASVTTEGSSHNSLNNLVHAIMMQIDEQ
Sequence of UniProt P19337 (whole entry, looked up): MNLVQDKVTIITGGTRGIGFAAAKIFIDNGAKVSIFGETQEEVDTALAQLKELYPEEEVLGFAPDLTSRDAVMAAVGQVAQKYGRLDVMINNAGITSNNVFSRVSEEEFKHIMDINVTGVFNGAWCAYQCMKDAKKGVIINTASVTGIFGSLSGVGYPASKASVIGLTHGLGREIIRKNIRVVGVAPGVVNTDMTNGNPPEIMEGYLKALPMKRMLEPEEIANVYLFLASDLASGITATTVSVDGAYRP

B1 (protein Y93N)
kcat (Nc1ccn([C@@H]2O[C@H](CO)[C@@H](O)[C@H]2O)c(=O)n1; pH 7.2, 25 °C, KCl 100 mM, added: ATP 100–200 µM): 4.1 ± 0.8 s⁻¹

B2 (protein)
kcat (CC(C)=CCC/C(C)=C/CC/C(C)=C/CO[P@@](=O)(O)OP(=O)(O)O; pH 7.5, room temperature, labelled compound, added: MgCl2 20 mM): 0.24 ± 0.013 s⁻¹

enzyme (Limosilactobacillus reuteri, UniProt Q8GP32)
kcat (OC[C@H]1O[C@@](CO)(O[C@H]2O[C@H](CO)[C@@H](O)[C@H](O)[C@H]2O)[C@@H](O)[C@@H]1O; pH 5.5, 50 °C, apparent): 760 ± 100 s⁻¹

nahG (Pseudomonas putida, UniProt P23262)
kcat (Cc1cc2nc3c(=O)[nH]c(=O)nc-3n(C[C@H](O)[C@H](O)[C@H](O)COP(=O)(O)OP(=O)(O)OC[C@H]3O[C@@H](n4cnc5c(N)ncnc54)[C@H](O)[C@@H]3O)c2cc1C; pH 8.5, 25 °C, apparent, cofactor varied, added: NADH 200 µM, salicylate 150 µM): 16.6 ± 0.3 s⁻¹

B3
kcat (COc1cc(C(=O)O)ccc1O; apparent, added: NADH 1 mM): 0.0617 ± 0.00333 s⁻¹

enzyme (Arabidopsis thaliana, UniProt O48715)
kcat (O=c1ccn([C@@H]2O[C@H](CO[P@@](=O)(O)O[P@@](=O)(O)O[C@H]3O[C@H](CO)[C@@H](O)[C@H](O)[C@H]3O)[C@@H](O)[C@H]2O)c(=O)[nH]1; pH 7.5, 25 °C): 0.00476 s⁻¹

B4 (FNO G29W)
kcat (CC(=O)c1ccc[n+](Cc2ccccc2)c1; pH 8, 25 °C, added: F420H2 40 µM): 4.2 ± 0.233 s⁻¹

B5 (Mj-MAT W387F/Y170W)
kcat (CSCC[C@H](N)C(=O)O; 55 °C, added: ATP 2.5 mM, methionine 0.05-1 mM): 2.39 ± 0.03 s⁻¹

STH1425 (Symbiobacterium thermophilum, UniProt Q67PI3)
kcat (O=C(O)C(=O)Cc1ccccc1; pH 9, 30 °C, reductive amination, added: NH4Cl 200 mM, NADPH 0.5 mM): 0.13 ± 0.03 s⁻¹

BaiA2 (Clostridium scindens, UniProt P19337)
kcat (NC(=O)c1ccc[n+]([C@@H]2O[C@H](COP(=O)(O)OP(=O)(O)OC[C@H]3O[C@@H](n4cnc5c(N)ncnc54)[C@H](OP(=O)(O)O)[C@@H]3O)[C@@H](O)[C@H]2O)c1; pH 8.7, 37 °C, cofactor varied, added: glycocholic acid 1.4 mM): 0.025 s⁻¹

B6 (MsrP)
kcat (C[S@+]([O-])CC[C@H](N)C(=O)O; pH 7, 30 °C, added: benzyl viologen 0.4 mM): 36 ± 3.6 s⁻¹

B7 (HEM1)
kcat (CC(C)(COP(=O)(O)OP(=O)(O)OC[C@H]1O[C@@H](n2cnc3c(N)ncnc32)[C@H](O)[C@@H]1OP(=O)(O)O)[C@@H](O)C(=O)NCCC(=O)NCCSC(=O)CCC(=O)O; pH 7.4, 30 °C): 0.0483 ± 0.00167 s⁻¹

B8 (enzyme)
kcat (CCCCC/C=C\C/C=C\C/C=C\CCCCC(=O)SCCNC(=O)CCNC(=O)[C@H](O)C(C)(C)COP(=O)(O)OP(=O)(O)OC[C@H]1O[C@@H](n2cnc3c(N)ncnc32)[C@H](O)[C@@H]1OP(=O)(O)O; pH 7.5, 28 °C): 0.367 ± 0.015 s⁻¹

Pck1 (Rattus norvegicus, UniProt P07379)
kcat (Nc1nc2c(ncn2[C@@H]2O[C@H](COP(=O)(O)OP(=O)(O)OP(=O)(O)O)[C@@H](O)[C@H]2O)c(=O)[nH]1; pH 7.5, 25 °C, added: OAA, GTP): 54 ± 0.2 s⁻¹

B9 (alanine racemase H166F)
kcat (C[C@@H](N)C(=O)O; pH 9, room temperature, added: NAD+ 10 mM): 3.9 s⁻¹

B10 (ycjQ)
kcat (CO[C@@H]1O[C@H](CO)[C@H](O)C(=O)[C@H]1O; pH 7, 30 °C, added: NADH 0.3 mM, MnCl2 0.5 mM): 7 ± 0.2 s⁻¹

B11 (protein)
kcat (O=c1ccn([C@@H]2O[C@H](COP(=O)(O)OP(=O)(O)O[C@H]3OC[C@@H](O)[C@H](O)[C@H]3O)[C@@H](O)[C@H]2O)c(=O)[nH]1; pH 7.6, 37 °C, added: NAD+ 1 mM): 13 ± 1.9 s⁻¹

Excerpt of the above:
B5 (Mj-MAT W387F/Y170W)
kcat (CSCC[C@H](N)C(=O)O; 55 °C, added: ATP 2.5 mM, methionine 0.05-1 mM): 2.39 ± 0.03 s⁻¹
